Experimental data pooled from the literature.
Each line is one published result; not all experiments were run side by side. Values joined by “and” are separate records of one study, mostly repeats; a detail may differ. ± gives the spread as reported.

C[C@@H]1CN(C(=O)c2ccc(NC(=O)c3cc(O[C@H](C)c4c(Cl)ccc(F)c4Cl)c(N)nn3)cc2)C[C@H](C)N1 — IC50 (Ba/F3 ETV6-TRKB; cell viability): 0.081 µM
CCN1CCN(c2ccc(Nc3cc(N(C)C(=O)Nc4c(Cl)c(OC)cc(OC)c4Cl)ncn3)cc2)CC1 — IC50 (HUVEC; ERK phosphorylation, inhibitor, measured: phospho-ERK1/2; with: bFGF): 0.0038 ± 0.0008 µM
Cc1cc(Nc2ncnc3ccc(NC4=NC(C)(C)CO4)cc23)ccc1Oc1ccn2ncnc2c1 — IC50 (Ba/F3 expressing HER2 L755P; cell growth, inhibitor, CellTiter-Glo): 0.608 µM
CN(C)C/C=C/C(=O)Nc1cc2c(Nc3ccc(F)c(Cl)c3)ncnc2cc1O[C@H]1CCOC1 — IC50 (NCI-H1975): 0.71 ± 0.04 µM
Cc1noc2c1-c1ccc(-c3cnn(C)c3)cc1C(c1ccc(Cl)cc1)=N[C@H]2CC(N)=O — IC50 (uveal melanoma cell lines; cell viability; average over cell lines): 0.323 µM
Clc1ccc(C[n+]2cn(CCc3ccccc3)c3ccccc32)cc1 — IC50 (H1299 (p53 null); cell viability, MTT; 72 h): 27.5 ± 1.3 µM
C[C@H]1Oc2cc(cnc2N)-c2c(nn(C)c2C#N)CN(C)C(=O)c2ccc(F)cc21 — IC50 (Ba/F3 CLIP1-LTK; cell viability): 0.0013 µM
COc1ccc2c(c1)OC1=C(C(=O)CC(C)(C)C1)C2c1c(C(=O)O)[nH]c2ccccc12 (centres unmarked) — IC50 (3T3-L1 pre-adipocytes; cell viability, MTT; 72 h): 35.6 ± 1.67 µg/mL
C=CC(=O)NC1CCN(c2ncc3ncnc(Nc4ccc(Oc5ccc6c(c5)ncn6C)c(C)c4)c3n2)CC1 — IC50 (Ba/F3 expressing HER2 V777L; cell growth, inhibitor, CellTiter-Glo): 0.0016 µM
COc1cc(N2CCC(N3CCN(C)CC3)CC2)ccc1Nc1ncc(Cl)c(Nc2ccccc2P(C)(C)=O)n1 — IC50 (Ba/F3 EML4-ALK variant 1 L1196Q; cell viability): 0.0337 µM
CCOc1cc2ncc(C#N)c(Nc3ccc(OCc4ccccn4)c(Cl)c3)c2cc1NC(=O)/C=C/CN(C)C — IC50 (Ba/F3 expressing HER2 L755P; cell growth, inhibitor, CellTiter-Glo): 0.0125 µM
Nc1nnc(-c2ccccc2O)cc1N1CCN(Cc2ccc(OCCOCCNc3cccc4c3C(=O)N(C3CCC(=O)NC3=O)C4=O)c(F)c2)CC1 (centres unmarked) — IC50 (SMARCA4 wild-type lung cancer cells; clonogenic growth; 10 days, median over cell lines): 6 µM
C=CS(=O)(=O)c1ccc(Nc2nc(OCC3CCCCC3)c3nc[nH]c3n2)cc1 — IC50 (THP-1; pyroptosis, inhibitor; with: LPS plus nigericin): 0.89 µM
CC(C)[C@@H]1NC(=O)/C(=C/c2cnc[nH]2)NC1=O — IC50 (NCI-H446/EP; cell growth, SRB): > 15 µM
COc1ccc(-c2nc(N3CCOCC3)c3sc(CN(C)c4ncc(C(=O)NO)cn4)cc3n2)cn1 — IC50 (uveal melanoma cell lines; cell viability; average over cell lines): 0.0109 µM
Cc1c(C(=O)O)ccc2c3n(nc12)[C@@H]1[C@H](C3)N(CC2CC2)[C@@]2(C(=O)Nc3cc(Cl)ccc32)[C@H]1c1cccc(Cl)c1F — IC50 (resistant cancer cell lines; cell viability, PRISM pooled screen; range, low sensitivity): 2.19 to 9.79 µM
CN1CCN(c2ccc(C(=O)Nc3n[nH]c4ccc(Cc5cc(F)cc(F)c5)cc34)c(NC3CCOCC3)c2)CC1 — IC50 (KM12-Luc (TPM3-NTRK1); cell growth, CellTiter-Glo; 72 h): 5.41 ± 1.32 µM
CC1=C(CO)C(=O)O[C@@H]([C@@H](C)[C@H]2CC[C@H]3[C@@H]4C[C@H]5O[C@]56[C@@H](O)C=CC(=O)[C@]6(C)[C@H]4CC[C@]23C)C1 — IC50 (THP1-ASC-GFP cells; ASC speck formation, high-content imaging; 1 h pretreatment, with: LPS priming and nigericin): 0.29 µM
CCCCN1C[C@H](O)[C@@H](O)[C@@H](O)[C@H]1CO — IC50 (sample BA patient fibroblasts; Gb3 level lowering, LC-MS/MS, measured: Gb3 d18:1/24:1; 216 h): 17 µM
CC1CCC(OCn2c[n+](Cc3ccccc3)c3ccccc32)CC1 (centres unmarked) — IC50 (H1299 (p53 null); cell viability, MTT; 72 h): 36 ± 4.6 µM
Cc1noc(C)c1-c1cc(C(O)(c2ccccn2)c2ccccn2)c2nc(C3CC3)[nH]c2c1 — IC50 (uveal melanoma cell lines; cell viability; average over cell lines): 0.105 µM
CC1(C)COc2ccc(F)cc2CN2c3nc4c(cnn4cc3OC[C@H]2C(F)F)C(=O)N1 — IC50 (Ba/F3 EML4-ALK variant 1 L1196Q; cell viability): 0.0141 µM
COc1c(Cl)cccc1Nc1c(-c2ccncc2OC[C@@H]2COCCO2)[nH]c2c1C(=O)NCC2 — IC50 (Ba/F3 expressing HER2 V777L; cell growth, inhibitor, CellTiter-Glo): 0.0011 µM
CC(C)(C)Cn1c(N)nc2ccc(-c3[nH]c(C(C)(C)C)nc3-c3ccc(F)cc3)nc21 — IC50 (Ba/F3 expressing EGFR L858R; cell viability; without IL-3): 0.15 µM
O=[N+]([O-])c1ccc(Sc2cccc[n+]2[O-])c2nonc12 — IC50 (uveal melanoma cell lines; cell viability; average over cell lines): 1.9 µM
COc1ccc(F)cc1C(=O)NCc1ccc(-c2nn([C@@H](C)C(F)(F)F)c(N)c2C(N)=O)cc1 — IC50 (Rec1; measured: VEGF; 24 h): > 0.1 µM
CC(=O)c1c(O)c(C)c(O)c2c1OC1=CC(=O)C(C(C)=O)C(=O)C12C (single isomer, unassigned; (+)) — IC50 (hepatocytes, iPSC-derived, line L2; cell viability; 72 h): 16 µM
N[C@@H](CC(=O)N1CCN(C(c2ccc(F)cc2)c2ccc(F)cc2)CC1)C(=O)N1Cc2ccccc2C1 — IC50 (NOMO-1; cell viability, CellTiter-Glo; day 5): 0.9 µM
Nc1ccn([C@@H]2O[C@H](CO)[C@@H](O)C2(F)F)c(=O)n1 — IC50 (uveal melanoma cell lines; cell viability; average over cell lines): 0.493 µM
O=C(C[C@@H](C(F)F)n1ccc(F)n1)N1CCC(O)(Cn2cnc3c(cnn3-c3ccc(F)cc3)c2=O)CC1 — IC50 (LNCaP USP7 V517F knock-in; cell viability, CCK-8; 5 days): 4.3 µM and 3.19 µM and 3.4 µM and 4.16 µM and 3.14 µM
Cc1nc(Nc2ncc(C(=O)Nc3c(C)cccc3Cl)s2)cc(N2CC[C@H](O)C2)n1 — IC50 (NAMALWA CSN/70; cell proliferation, CellTiter-Glo; 72 h): > 10 µM
Cc1cc(C(C)Nc2ccccc2)c2nc(N3CCOCC3)cc(=O)n2c1 (centres unmarked) — IC50 (HCC1954 (PIK3CA H1047R); cell viability; 4 days): 5.49 µM
Cc1c(C)c2c(c(C)c1O)CCC(C)(COc1ccc(CC3SC(=O)NC3=O)cc1)O2 (centres unmarked) — IC50 (hepatocytes, iPSC-derived, line L2; cell viability, RealTime-Glo MT; 48 h, differentiation day 23): 25 µM
C=CC(=O)N1CC/C(=C\c2ccc(F)c([N+](=O)[O-])c2)C(=O)/C(=C/c2ccc(F)c([N+](=O)[O-])c2)C1 — IC50 (THP1-ASC-GFP cells; ASC speck formation, high-content imaging; 1 h pretreatment, with: LPS priming and nigericin): 0.033 µM
O=C(O)COCC(=O)O — IC50 (hepatocytes, iPSC-derived, line L2; cell viability, RealTime-Glo MT; 48 h, differentiation day 23): 2010 µM
CC(C)[C@@H]1NC(=O)[C@H](Cc2c[nH]cn2)NC1=O — IC50 (NCI-H446/EP; cell growth, SRB): > 15 µM
COc1nnc2ccc(N3CCC(c4ccc(OCCN5CCN(C)C(=O)[C@H]5C)cc4)CC3)nn12 — IC50 (uveal melanoma cell lines; cell viability; average over cell lines): 0.0825 µM
COC(=O)/C=C/C(=O)OCCN1C(=O)CCC1=O — IC50 (THP1-ASC-GFP cells; ASC speck formation, high-content imaging; 1 h pretreatment, with: LPS priming and nigericin): 1.93 µM
COC1=CC(=O)c2ccccc2C1=O — IC50 (MRC-5; cell viability, alamarBlue; 24 h): 11.9 µM
Cc1ccc(CNC(=O)Cn2cc(CSc3nc4ccccc4[nH]3)nn2)cc1 — IC50 (HEK293; cell viability, MTT): 17.7 µg/mL
C/C=C1\NC(=O)[C@H]2CSSCC/C=C/[C@H](CC(=O)N[C@H](C(C)C)C(=O)N2)OC(=O)[C@H](C(C)C)NC1=O — IC50 (uveal melanoma cell lines; cell viability; average over cell lines): 0.00072 µM
CC[C@@H](C)[C@H](N)C(=O)N1Cc2ccccc2C1 — IC50 (NOMO-1; cell viability, CellTiter-Glo; reference: DMSO): 1 µM
CS(=O)(=O)CCNCc1ccc(-c2ccc3ncnc(Nc4ccc(OCc5cccc(F)c5)c(Cl)c4)c3c2)o1 — IC50 (Ba/F3 expressing HER2 V777L; cell growth, inhibitor, CellTiter-Glo): 0.0583 µM
C=C1C[C@](OC)([C@H](OCOC/C=C/B2OC(CC)(CC)C(CC)(CC)O2)C(=O)NC[C@@H]2C[C@@H](OC)C(C)(C)[C@@H](C[C@@H](COC)OC)O2)O[C@H](C)[C@@H]1C — IC50 (B16; cell viability, sulforhodamine B; 72 h, 37 °C, with: 100 µM H2O2): 0.0031 ± 0.0002 µM
